Measurements of several laboratories.
Protocols differ between the studies behind these lines.
Target: Homeodomain-interacting protein kinase 2 (HIPK2, Homo sapiens, UniProt Q9H2X6)

With `CC(C)=CC1OC(C)(C)C2C=C3C(=O)C(Cl)=CC(O)C3C3C(O)C4OC4C(=O)C132` (centres unmarked) the remaining binding was 80% (cell-free assay, competition with immobilised ligand; 10 µM).
For `O=C=[N][Ru-4]123([n]4c5ccc(O)cc5c5c6c(c7cc(F)c[n+]1c7c54)C(=O)NC6=O)[S+]1CC[S+]2CC[S+]3CC1` (centres unmarked), the remaining activity was 70% (enzyme activity; 100 nM, human enzyme, together with: 10 µM ATP; reference: untreated).
For `COc1cc(Nc2nc(C)cc(-c3cnn4nc(OC)ccc34)n2)cc(C(F)(F)F)c1`, the remaining binding was 94% (binding, competition with immobilised ligand; 1 µM).
`Cc1ccc(-c2c(/C=C(\C#N)C(=O)NC(C)C)n(CCCO)c3ncnc(N)c23)cc1` gave a remaining binding of 75% (cell-free assay, competition with immobilised ligand; 1 µM).
`O=C(Cc1ccc(OCc2ccccc2)cc1)NC1(C(=O)O)CCN(C(=O)c2ccc(-c3cccc(Cl)c3)cc2)CC1` — result for “activity vs control”: 109% (enzyme activity, inhibitor; 10 µM).
`C=CC(=O)N1Cc2nc(-c3cc(-c4cc(Cl)cnc4Cl)c(F)cc3F)n(-c3ccncn3)c2C1` gave an inhibition of 3.6% (cell-free assay, inhibitor; 1 µM).
With `C=CC(=O)Nc1cccc(-c2cnc3[nH]cc(C(=O)NC(C)(C)C)c3n2)c1` the inhibition was 65% (enzyme activity, inhibitor; 0.1 µM).
`CNC(=O)C[C@H](Cc1ccc(C#N)cc1)NC(=O)c1cc(-c2ccc(CN[C@H](C)c3ccc(C)cc3)o2)ccc1Cl` — result for “activity vs control”: 106% (enzyme activity, inhibitor; 1 µM).
`Cc1ccc(C)c(-c2ccc3nc(NC(=O)C4CCCCC4)nn3c2)c1` gave a remaining activity of 86% (enzyme activity, Dundee kinase panel; 10 µM).
With `Cc1cnc2nc1Nc1cccc(c1)COC/C=C/COCc1cc(ccc1OCCN1CCOCC1)N2` the remaining binding was 82% (binding; 0.1 µM).
The remaining activity of `Nc1ncc(-c2cc(-c3cnn(CC(F)(F)F)c3)ncc2F)nc1C(=O)NC1CNCC(F)C1` (centres unmarked) is reported as 87.6% (enzyme activity; 1 µM; reference: DMSO control).
`CCN1CCN(Cc2ccc(C(=O)Nc3ccc(C)c(NCc4cnc5[nH]ccc5c4OC)c3)cc2C(F)(F)F)CC1` has a remaining binding of 56% (binding, competition with immobilised ligand; 1 µM).
`NC(=O)[C@@H](O)C[C@H]1CCc2sc3ncnc(O[C@H]4CC[C@H](N5CCOCC5)CC4)c3c21` gave an inhibition of -13% (enzyme activity, inhibitor; 10 µM).
`CNC(=O)C1CCN(c2cc(C)c(F)cc2NC(=O)c2ccc(-c3cc(O)ccc3C)c(C)c2)CC1` gave a remaining binding of 92% (binding, competition with immobilised ligand; 1 µM).
For `Cc1cccc(-c2ccc3nc(NC(=O)C4CCOCC4)nn3c2)c1`, the remaining activity was 102% (enzyme activity, Dundee kinase panel; 10 µM).
With `C=CC(=O)N1CCc2ccc(-n3c(=O)ccc4cnc5ccc(-c6cnn(C)c6)cc5c43)cc21` the remaining binding was 66% (KINOMEscan; 1 µM; reference: DMSO control).
The inhibition of `Cc1cccc(O[C@H]2CCC[C@@H](C(C)CNCc3ccncc3)C2)c1` (relative stereo) is reported as 1% (enzyme activity, inhibitor; 1 µM).

A few entries again:
With `C=CC(=O)N1CCc2ccc(-n3c(=O)ccc4cnc5ccc(-c6cnn(C)c6)cc5c43)cc21` the remaining binding was 66% (KINOMEscan; 1 µM; reference: DMSO control).
